Published values gathered from unrelated publications.
Lines come from different studies, so protocols differ. Numbers after ± are the reported error.
Target: Muscarinic acetylcholine receptor M2 (CHRM2, Homo sapiens, UniProt P08172)
UniProt P08172, sequence (whole entry, looked up): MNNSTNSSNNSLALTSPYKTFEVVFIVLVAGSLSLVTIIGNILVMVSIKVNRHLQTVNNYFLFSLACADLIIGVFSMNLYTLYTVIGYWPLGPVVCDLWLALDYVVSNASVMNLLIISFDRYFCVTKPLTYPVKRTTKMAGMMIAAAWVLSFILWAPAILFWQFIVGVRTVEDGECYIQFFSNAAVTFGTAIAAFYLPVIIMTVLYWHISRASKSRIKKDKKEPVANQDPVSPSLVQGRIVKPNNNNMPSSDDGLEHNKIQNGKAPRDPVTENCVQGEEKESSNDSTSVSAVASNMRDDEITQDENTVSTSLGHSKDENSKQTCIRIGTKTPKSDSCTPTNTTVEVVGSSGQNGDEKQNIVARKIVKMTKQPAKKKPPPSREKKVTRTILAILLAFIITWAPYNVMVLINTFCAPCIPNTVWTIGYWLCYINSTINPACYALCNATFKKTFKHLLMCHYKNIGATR

| Structure (SMILES) | test | system | conditions | how to read | quantity | result |
| --- | --- | --- | --- | --- | --- | --- |
| O=C1c2sc(-c3ccc(N4CCC(CO)CC4)nc3F)nc2CCN1c1cccnc1 | ligand displacement, radioligand |  | 1 µM |  | inhibition | -4% |
| CC(C)Cn1c(SCC(=O)N2CCc3ccccc3C2)nc2cc(Cl)ccc2c1=O | ligand displacement, radioligand |  | 10 µM |  | inhibition | 23% |
| CCCCCCOc1ccc(C(=O)OCC[N+]2(C)CC=CCC2)cc1 (centres unmarked) |  | membranes | 10 µM, 15 h, no carbachol | baseline: control | basal binding | 1.1 ± 0.06 fold |
| COc1ccc(S(=O)(=O)N2CCc3ccccc3C2)cc1N1CCN(C(=O)c2ccc(F)cc2C(F)(F)F)CC1 | ligand displacement, radioligand |  | 1 µM |  | inhibition | -5.1% |
| C=CCn1c(=O)c2ccccc2n2c(SCC(=O)OC)nnc12 | receptor activation, agonist |  | concentration not given, 16 h |  | Emax | 275 ± 11% |
| COc1ccc(C#CC2=C[C@H]3C[C@@]4(OC(=O)C=C24)[C@H]2CC[C@H](C(OC)OC)N32)cc1 | ligand displacement, radioligand |  | 10 µM |  | inhibition | 1% |
| C=CCn1c(=O)c2ccccc2n2c(SCC(=O)Nc3ccc(NC(C)=O)cc3)nnc12 | allosteric modulator |  | together with: [3H]NMS |  | cooperativity factor | 5.5 ± 0.1 |
| CCCCCCOc1ccc(C(=O)OCCN2CC=CCC2)cc1 |  | membranes | 10 µM, 15 h, no carbachol | baseline: control | basal binding | 1.4 ± 0.1 fold |
| C=CCn1c(=O)c2ccccc2n2c(SC3CCOC3=O)nnc12 (centres unmarked) | receptor activation, agonist |  | concentration not given, 16 h |  | Emax | 244 ± 38% |
| C[Si]1(C[C@H](CN)CC(=O)O)CCCC1 | ligand displacement, radioligand |  | 70 µM |  | inhibition | -12% |
| CO[C@@H](C)c1c(NC(=O)Nc2cnc(-n3nccn3)c(C(F)(F)F)c2)cnc2sc(C)nc12 | ligand displacement, radioligand |  | 10 µM |  | inhibition | 8.3% |
| CCCCOc1ccc(C(=O)OCCN2CC=CCC2)cc1 |  | membranes | 1 µM, 15 h, no carbachol | baseline: control | basal binding | 1.13 ± 0.05 fold |
| C=CCn1c(=O)c2ccccc2n2c(SCC(=O)NC3CC3)nnc12 | receptor activation, agonist |  | concentration not given, 16 h |  | Emax | 258 ± 20% |
| C[Si](C)(C)C[C@H](CN)CC(=O)O | ligand displacement, radioligand |  | 250 µM |  | inhibition | 6% |
| CCCCOc1ccc(C(=O)OCC[N+]2(C)CC=CCC2)cc1 (centres unmarked) |  | membranes | 100 µM, 15 h, no carbachol | baseline: control | basal binding | 1.17 ± 0.06 fold |
| COc1ncc2nc(C)n(Cc3ncc(S(N)(=O)=O)cc3F)c2c1-c1ccccc1 | agonist, cell-based |  | 10 µM |  | activation | 8.7% |
| COCC(=O)N1CCc2cc(-c3csc(NC(=O)c4cc(OC)cc(OC)c4)n3)ccc21 | ligand displacement, radioligand |  | 10 µM |  | inhibition | -9% |

Excerpt of the above:
| Structure (SMILES) | test | system | conditions | how to read | quantity | result |
| --- | --- | --- | --- | --- | --- | --- |
| C=CCn1c(=O)c2ccccc2n2c(SCC(=O)NC3CC3)nnc12 | receptor activation, agonist |  | concentration not given, 16 h |  | Emax | 258 ± 20% |
